Results of several laboratories.
Each numbered part is a random draw from the data of one study; scales do not carry over between parts. Substitutions count along the parent as printed.

Sample 1
Target: Phosphate system positive regulatory protein PHO4, full length, GST-tagged (PHO4, Saccharomyces cerevisiae, UniProt P07270, residues 1-312)
Technique: competition protein-binding microarray
Form: double-stranded DNA, one strand shown
Medium: in vitro
Tested at: 2 µM
Notes: whole 60-bp probe, lowest competitor level
With: Cbf1 competitor, 0.05 µM
Reading: higher = stronger binding
Measurement: fluorescence intensity
All sequences stand within: … GTCTTGATTCGCTTGACGCTGCTG
Construct (chain): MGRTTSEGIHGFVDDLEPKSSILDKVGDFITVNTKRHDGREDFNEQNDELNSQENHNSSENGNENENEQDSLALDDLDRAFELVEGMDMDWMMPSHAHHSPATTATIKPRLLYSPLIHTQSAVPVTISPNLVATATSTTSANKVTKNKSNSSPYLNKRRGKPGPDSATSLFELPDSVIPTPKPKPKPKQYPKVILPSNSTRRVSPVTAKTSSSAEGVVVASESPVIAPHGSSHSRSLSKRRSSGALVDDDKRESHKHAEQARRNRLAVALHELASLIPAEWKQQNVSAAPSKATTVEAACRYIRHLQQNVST
AAAGCGGTAATTTTTCACGTGAAGTCAAATATCTAT: 9740 a.u.
TCAAGCAGAAGAAAGCACGTGGCCGAACGCTTACCT: 16600 a.u.
CGGGGTTAAGTTTGACACGTGTTTTGCTTGCAGCAG: 17300 a.u.
CTTTCCCGATCTTGATACGTGGGTGTAGCACATTTG: 7670 a.u.
GTCTTGTCTCATTGTCATGTGGGTGTCCCCACTTCA: 9240 a.u.
AAAGCGGTAATTTGTAGTGTGGGTGCAGATATCTAT: 5740 a.u.
TGCGCAACAACTTTTCACGTGGAATTATGTCTAGAA: 12700 a.u.
GGAGCAGGCTCAGAGAATGTGACGAAATTCGCTTTA: 4400 a.u.
TCTTGAAGATGGTGCAAACAAAGTTCTGTGGGATTC: 3170 a.u.
GATAGACGAGAAGGACACATGGAGGATTTGACAGGC: 8050 a.u.
AAAGCGGTAATTTGAAGGGTGGGTGCAGATATCTAT: 4940 a.u.
CGTCCTAGTGATTGTCAGGTGGGTGCCATGAGGAAG: 8740 a.u.
CATAAGGACCCCCATATCGTGATGGTCATTGATGAC: 5850 a.u.
CGACTTCAGCCAAATAACGTGGAGGCTCTGGAACAA: 8480 a.u.
GTCTTGTCTCATTTTCACGTGAAGTTCCCCACTTCA: 8850 a.u.
AGCACCCTGGTATTTCTCGTGATGGTCTGCCCTTCA: 4040 a.u.
CGAAAGAAAGCGAGTCACGATAACGGTGAGGTGATT: 3830 a.u.
AGAACCGTTAAATTCCCCGTGCTTTCTCGCATTAAG: 8550 a.u.
GCGCTTGTCGCTCGGCACGATGCCAGTGCGGAGTTT: 9230 a.u.
TCAAACCTGGCTCACCACGTGGGACATAAGCATATG: 18700 a.u.

Sample 2
Target: Prothrombin, mature alpha-thrombin (F2, Homo sapiens, UniProt P00734)
Technique: aptamer microarray, sandwich
Form: DNA with 2'F-ANA
Medium: in vitro
Tested at: 200 nM
Notes: whole 15-mer aptamer, many near background
With: Cy3 exosite-II aptamer, 400 nM
Reading: higher = stronger binding
Measurement: mean fluorescence intensity
Sequence: GGTTGGTGTGGTTGG
2'F-ANA at 1 2 3 10 15: 74.4 a.u.
2'F-ANA at 2 4 5 6 7 10 12 14: 45.4 a.u.
2'F-ANA at 1 2 4 5 10 11 13 15: 48.2 a.u.
2'F-ANA at 2 3 4 6 11 12 14 15: 303 a.u.
2'F-ANA at 2 3 4 5 6 7 8 9 10 11 12: 59.1 a.u.
2'F-ANA at 1 6 10 11 12 14: 50.4 a.u.
2'F-ANA at 2 4 5 6 7 9 12 15: 145 a.u.
2'F-ANA at 2 4 6 8 11 13 14: 123 a.u.
2'F-ANA at 1 4 5 7 8 11 14: 47.2 a.u.
2'F-ANA at 4 7 11 13 14 15: 99.7 a.u.
2'F-ANA at 1 2 3 4 5 6 9 11 14: 51.5 a.u.
2'F-ANA at 2 3 4 5 6 9 10 11: 78.9 a.u.
2'F-ANA at 3 5 6 7 9 13 14: 60.6 a.u.
2'F-ANA at 1 5 6 11 15: 53.8 a.u.
2'F-ANA at 5 6 7 9 10 11 12: 56.1 a.u.
2'F-ANA at 3 4 5 6 7 8 13 15: 70.4 a.u.
2'F-ANA at 3 8 10 11 12: 625 a.u.
2'F-ANA at 2 5 6 9 10 11 13 14 15: 54.5 a.u.
2'F-ANA at 1 2 3 6 7 8 9 10 12: 83.7 a.u.
2'F-ANA at 1 3 5 8 12 13: 107 a.u.
2'F-ANA at 1 2 3 4 6 7 8 9 14 15: 57.6 a.u.
2'F-ANA at 3 4 5 6 9 11 12 13 14 15: 55.7 a.u.
2'F-ANA at 4 6 7 10 13 14: 57.1 a.u.
2'F-ANA at 1 2 3 4 8 10 11 13 14 15: 53.6 a.u.
2'F-ANA at 1 2 3 5 7 8 9 13 15: 50.6 a.u.

Sample 3
Target: CCNA2, cyclin fold, Cln2 fusion (human)
Technique: yeast growth competition, sequencing
Medium: yeast
Notes: strong parent motif
Relative to: not given
Reading: higher = stronger binding
Measurement: normalised enrichment score
Starting sequence: MICAL3 docking peptide (human); LQLRRQLSFSEDS
R4N: 1.65
D12T: 3.55
D12K: 3.63
F9N: 0.0663
L7E: 0.0897
R5H: 0.332
F9K: 0.437
R4Q: 0.322
F9M: 0.873
R5Y: 0.256
S8L: 3.55
S10K: 2.23
Q2M: 3.22
F9R: 0.373
S8V: 4.2
Q2Y: 3.03
S8R: 3.04
F9D: -0.102

Sample 4
Target: Histone acetyltransferase KAT6A, both winged helices, GST fusion (KAT6A, Homo sapiens, UniProt Q92794, residues 1-181)
Technique: protein binding microarray
Form: double-stranded DNA, one strand shown
Medium: in vitro
Tested at: not given
Notes: 8-mer, flanks averaged, mean of 2 arrays, mostly near background
Relative to: not given
Reading: higher = stronger binding
Measurement: E-score
Target sequence (chain): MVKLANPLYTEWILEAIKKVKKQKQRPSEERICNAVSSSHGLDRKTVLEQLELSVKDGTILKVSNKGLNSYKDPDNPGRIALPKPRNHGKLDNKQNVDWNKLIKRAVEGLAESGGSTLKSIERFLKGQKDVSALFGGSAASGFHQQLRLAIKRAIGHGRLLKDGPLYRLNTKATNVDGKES
CCGTTAAC: 0.227
CTTCACTC: -0.155
AACAAGAG: -0.234
AAAAGCCC: -0.131
ATATCAGG: -0.157
CCTCTTAA: -0.09
AAAGTCGA: 0.00487
ATAAGGTA: -0.124
AATCTCCT: -0.18
CGGTCGCC: 0.189
AACCACTC: -0.142
CGATTCCC: 0.0148
CGGATAAC: 0.13
CTGGTGTA: -0.175
ACTGTAAA: -0.0328
ACACCCCC: -0.124
GACCCACC: -0.0624
AAGAACCC: -0.0568
CGGTTCAC: 0.188
CAAGGAGG: -0.131
GCATCCAC: 0.088
GAGACGCA: 0.218
AATTCAGC: -0.0265

Sample 5
Target: RNA binding protein fox-1 homolog 2, RRM domain, GST-SBP tag (RBFOX2, Homo sapiens, UniProt O43251-10, residues 100-194)
Technique: RNA Bind-n-Seq
Form: RNA
Medium: in vitro
Tested at: 365 nM
Notes: natural RNA segment, single round, ends assumed
Relative to: no-protein control
Reading: higher = stronger binding
Measurement: RBNS enrichment (R)
All sequences stand within: GGGAGUUCUACAGUCCGACGAUC … UGGAAUUCUCGGGUGCCAA
Residues (chain): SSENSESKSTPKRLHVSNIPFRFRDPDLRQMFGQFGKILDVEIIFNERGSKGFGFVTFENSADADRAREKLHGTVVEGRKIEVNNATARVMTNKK
AUGUUCAGAUUCCUUUGAGAAUUUCAAAUGAAAAAUAAUCUUUCUGUAUGUGGUGUCUAACAUCUACAAGGUGGGGGCUGGAGAAGUGGCUUGGUGCUCAAAGGCACUUG: 0.62
UGGCUCAGGCACCCUGGUUUUAAUUCCUUGAGGAUCUGGCAAUUGGCUUACGCAAAAGGUCACCAUUUGAGGUCCUGCCUUACUAAUUAUGUGCUGCCCAACAACUAAAU: 0.394
UUCCAAUCUGGACAUGAUGGGGCUGAUUCCAGAUGGUUUUUCUGAAAUUUCAUUAAGGUAGGUCAGCGUCAUUUGUCUCUGUUUAGGUAAAAUAUAAAAACCCUGCCCAG: 0.346
UCAGUUCAGCUUAAAGAACGCCAGUUAGGCCGGGCGUGGUGGCGCACGUCUUUAAUCCCAGCACUUGGGAGGCAGGCAGAGAUAGGCGGAUUUCUGAGUUUGAGGCCAGC: 0.527
UUUUCAUCCUGUAUCACAGUGUUUUUAUUGCUCGCCCAGACACCAUGUGCAAUAAGACUGGUGUUCGUUUCCAUCAUGUCUGUAUACUUCUGUCAUCUAGACUGUGCAUC: 1.45
UCCUGAAGGUGUAAAAUUGUAAAUAUUUUUAUCUAUGAGUAAAUGUUAAGUAGUUGUUUUAAAAUACUUAAUAAAAUAAUUCUUUUCCUGUGGAAGAGAAAGAUGGUCUC: 0.948
GGAUCUCCUUCCCAGUUUCAGCACUUCAGUCAGGGCUGACCAACUUGAAAAGAGCCUCCGACUGUCCUCCAUCGGACAGGGGAAGAGGAGGCCGAGCCCACCCUUAGCCA: 0.507
UUUGAAGUUUUUCAGUGAAGGAAAAGGCCUGAGAUAGGAAGCAGUGCCCUCGCUUCAUGAGGUGGCACAUCUUCGGUGGCCGUUGGCCUGGUCGAGCUUUGGUCAGCUGC: 0.36
AUUGCACUUCACUCUGUUUUCAGGGGGAUUGGGGACAUUCGGGGAGACUGUAUCUGUCUACUUUGUGUGACUGUUUUGAGGGACUGUCCCAUCAGUGAACAGAUUGCAUG: 6.12
AUUUCCAGUUGCCCAUCAGAUUUAAUCUUACUUAUGUAAGGCAUGAUGGUGAUGAUAAGAAAAGGCCAGUGAUUGUUCAUCGAGCCAUCUUGGGAUCAGUGGAAAGAAUG: 0.307
GGGCCCAGGCCUCAGCCCCAGUUCUACCUGGCUUGCUGUCACCGCUCUAGGGGUGGGGGACGUCCCAGGGGAUCCCCAGGAGAAGGAGAGCCCUGUAGGGGGCUGUGCAG: 0.427
UACCAGUUCGGGUUAAUAAAAUGAUGCCACUUGUGUCUUUUGUUCUUAAGCAGGGAAGAUAAGAGACCCUGCUCUCCACAGGUUGGUACAAAGGGGAACCUUGCUUCUGU: 0.302

For quick reference, copied from above (sample 2):
2'F-ANA at 3 4 5 6 7 8 13 15: 70.4 a.u.
2'F-ANA at 3 8 10 11 12: 625 a.u.
2'F-ANA at 2 5 6 9 10 11 13 14 15: 54.5 a.u.
2'F-ANA at 1 2 3 6 7 8 9 10 12: 83.7 a.u.
2'F-ANA at 1 3 5 8 12 13: 107 a.u.
2'F-ANA at 1 2 3 4 6 7 8 9 14 15: 57.6 a.u.
2'F-ANA at 3 4 5 6 9 11 12 13 14 15: 55.7 a.u.
2'F-ANA at 4 6 7 10 13 14: 57.1 a.u.
2'F-ANA at 1 2 3 4 8 10 11 13 14 15: 53.6 a.u.
